Published values gathered from unrelated publications.
A part holds a random share of what one study measured. Several values in a cell are separate wells, animals, samples, runs or records. Positions count from the first letter of the parent shown.

Series 1
Target: HLA class I histocompatibility antigen, A alpha chain, allele A*80:01 (Homo sapiens, UniProt P04439)
Observed: peptide-MHC binding
Form: peptide
Tested at: concentration not given
Measurement: binding
FTDISMSLY: inactive
YYRYPTGESY: inactive
LEFNSSLAI: inactive
FPSNMMVVT: inactive
VSRDFDDVY: inactive
SLMSRVVYK: inactive
GVPELGAFF: inactive
GTEEIRSLY: inactive

Series 2
Target: CCNB3, cyclin fold, Cln2 fusion (human)
Method: yeast growth competition, sequencing
Matrix: yeast
Setting: strong parent motif
Reference: not given
Reading: higher = stronger binding
Measurement: normalised enrichment score
Starting sequence: viral docking peptide; YKVKRRLVFGADD
YKYKRRLVFGADD [V3Y]: 0.0779
YKVWRRLVFGADD [K4W]: 1.15
YKVKRREVFGADD [L7E]: 0.0212
YKVKRRLYFGADD [V8Y]: 1.61
YKVKRWLVFGADD [R6W]: 0.243
YKVKRRLVFGAKD [D12K]: 1.87
YKVKRRLEFGADD [V8E]: 2.04
YNVKRRLVFGADD [K2N]: 2.79

Further values, each from its own experiment
CO[C@@H]1[C@@H](OC(N)=O)[C@@H](O)[C@H](Oc2ccc3c(O)c(NC(=O)c4ccc(O)c(CC=C(C)C)c4)c(=O)oc3c2C)OC1(C)C  surviving fraction (RPE-1 wild type; 100 µM; reference: untreated): 1.26 and 1.13 and 1.16
C[C@H](CS)C(=O)N1CCC[C@H]1C(=O)O  GFP-positive cells (HEK-293T; pseudovirus infection, FDA-approved drug library counter-screen; VSV pseudotyped with VSV-G; 10 µM, 16 h; reference: vehicle-treated): 107%

Some of these lines once more (series 2):
YKVKRWLVFGADD [R6W]: 0.243
